Published values pooled from the literature.
Every numbered part comes from another study and shows a few of its results, in no order. “And” joins repeats or separate records; there may be more than shown.
Sequence of UniProt P22607 (whole entry, unmodified, looked up): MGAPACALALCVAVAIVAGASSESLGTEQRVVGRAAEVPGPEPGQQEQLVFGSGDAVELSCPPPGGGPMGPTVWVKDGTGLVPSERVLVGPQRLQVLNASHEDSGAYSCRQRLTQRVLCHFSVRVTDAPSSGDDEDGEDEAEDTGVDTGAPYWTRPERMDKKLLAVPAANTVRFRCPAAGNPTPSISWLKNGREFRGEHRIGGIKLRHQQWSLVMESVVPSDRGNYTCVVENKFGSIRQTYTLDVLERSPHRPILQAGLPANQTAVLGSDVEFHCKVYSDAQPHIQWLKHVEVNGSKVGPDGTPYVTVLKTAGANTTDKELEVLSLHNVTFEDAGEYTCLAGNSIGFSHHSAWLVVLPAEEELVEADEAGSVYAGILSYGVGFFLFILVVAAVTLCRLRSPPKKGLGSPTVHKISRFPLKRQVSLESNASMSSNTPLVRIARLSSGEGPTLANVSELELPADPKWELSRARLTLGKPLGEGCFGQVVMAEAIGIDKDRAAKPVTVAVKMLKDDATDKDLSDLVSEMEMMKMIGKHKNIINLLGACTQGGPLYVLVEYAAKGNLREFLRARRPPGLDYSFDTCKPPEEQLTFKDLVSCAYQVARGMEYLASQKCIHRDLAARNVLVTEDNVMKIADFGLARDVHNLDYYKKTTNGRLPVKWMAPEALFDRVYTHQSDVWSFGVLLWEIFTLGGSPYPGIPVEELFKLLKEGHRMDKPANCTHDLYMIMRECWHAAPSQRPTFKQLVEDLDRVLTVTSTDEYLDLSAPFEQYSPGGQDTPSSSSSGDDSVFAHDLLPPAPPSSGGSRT
Sequence of UniProt Q06187 (whole entry, looked up): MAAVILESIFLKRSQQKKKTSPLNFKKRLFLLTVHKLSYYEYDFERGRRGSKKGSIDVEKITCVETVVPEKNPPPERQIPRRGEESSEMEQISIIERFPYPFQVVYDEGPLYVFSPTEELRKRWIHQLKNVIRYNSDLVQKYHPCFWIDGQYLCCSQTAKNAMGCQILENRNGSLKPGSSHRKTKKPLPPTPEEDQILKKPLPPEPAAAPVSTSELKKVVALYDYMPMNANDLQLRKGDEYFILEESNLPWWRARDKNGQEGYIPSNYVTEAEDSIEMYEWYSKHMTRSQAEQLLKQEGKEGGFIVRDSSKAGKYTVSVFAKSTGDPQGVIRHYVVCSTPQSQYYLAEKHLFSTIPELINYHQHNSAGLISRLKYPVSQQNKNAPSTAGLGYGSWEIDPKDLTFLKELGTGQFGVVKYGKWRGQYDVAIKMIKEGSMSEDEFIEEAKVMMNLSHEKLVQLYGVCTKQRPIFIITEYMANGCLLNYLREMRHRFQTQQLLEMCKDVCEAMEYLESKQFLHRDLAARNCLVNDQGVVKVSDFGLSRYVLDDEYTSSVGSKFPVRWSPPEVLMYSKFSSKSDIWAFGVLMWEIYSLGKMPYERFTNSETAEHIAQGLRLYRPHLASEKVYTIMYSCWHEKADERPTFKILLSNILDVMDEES
Sequence of UniProt Q9Y3S1 (whole entry, looked up): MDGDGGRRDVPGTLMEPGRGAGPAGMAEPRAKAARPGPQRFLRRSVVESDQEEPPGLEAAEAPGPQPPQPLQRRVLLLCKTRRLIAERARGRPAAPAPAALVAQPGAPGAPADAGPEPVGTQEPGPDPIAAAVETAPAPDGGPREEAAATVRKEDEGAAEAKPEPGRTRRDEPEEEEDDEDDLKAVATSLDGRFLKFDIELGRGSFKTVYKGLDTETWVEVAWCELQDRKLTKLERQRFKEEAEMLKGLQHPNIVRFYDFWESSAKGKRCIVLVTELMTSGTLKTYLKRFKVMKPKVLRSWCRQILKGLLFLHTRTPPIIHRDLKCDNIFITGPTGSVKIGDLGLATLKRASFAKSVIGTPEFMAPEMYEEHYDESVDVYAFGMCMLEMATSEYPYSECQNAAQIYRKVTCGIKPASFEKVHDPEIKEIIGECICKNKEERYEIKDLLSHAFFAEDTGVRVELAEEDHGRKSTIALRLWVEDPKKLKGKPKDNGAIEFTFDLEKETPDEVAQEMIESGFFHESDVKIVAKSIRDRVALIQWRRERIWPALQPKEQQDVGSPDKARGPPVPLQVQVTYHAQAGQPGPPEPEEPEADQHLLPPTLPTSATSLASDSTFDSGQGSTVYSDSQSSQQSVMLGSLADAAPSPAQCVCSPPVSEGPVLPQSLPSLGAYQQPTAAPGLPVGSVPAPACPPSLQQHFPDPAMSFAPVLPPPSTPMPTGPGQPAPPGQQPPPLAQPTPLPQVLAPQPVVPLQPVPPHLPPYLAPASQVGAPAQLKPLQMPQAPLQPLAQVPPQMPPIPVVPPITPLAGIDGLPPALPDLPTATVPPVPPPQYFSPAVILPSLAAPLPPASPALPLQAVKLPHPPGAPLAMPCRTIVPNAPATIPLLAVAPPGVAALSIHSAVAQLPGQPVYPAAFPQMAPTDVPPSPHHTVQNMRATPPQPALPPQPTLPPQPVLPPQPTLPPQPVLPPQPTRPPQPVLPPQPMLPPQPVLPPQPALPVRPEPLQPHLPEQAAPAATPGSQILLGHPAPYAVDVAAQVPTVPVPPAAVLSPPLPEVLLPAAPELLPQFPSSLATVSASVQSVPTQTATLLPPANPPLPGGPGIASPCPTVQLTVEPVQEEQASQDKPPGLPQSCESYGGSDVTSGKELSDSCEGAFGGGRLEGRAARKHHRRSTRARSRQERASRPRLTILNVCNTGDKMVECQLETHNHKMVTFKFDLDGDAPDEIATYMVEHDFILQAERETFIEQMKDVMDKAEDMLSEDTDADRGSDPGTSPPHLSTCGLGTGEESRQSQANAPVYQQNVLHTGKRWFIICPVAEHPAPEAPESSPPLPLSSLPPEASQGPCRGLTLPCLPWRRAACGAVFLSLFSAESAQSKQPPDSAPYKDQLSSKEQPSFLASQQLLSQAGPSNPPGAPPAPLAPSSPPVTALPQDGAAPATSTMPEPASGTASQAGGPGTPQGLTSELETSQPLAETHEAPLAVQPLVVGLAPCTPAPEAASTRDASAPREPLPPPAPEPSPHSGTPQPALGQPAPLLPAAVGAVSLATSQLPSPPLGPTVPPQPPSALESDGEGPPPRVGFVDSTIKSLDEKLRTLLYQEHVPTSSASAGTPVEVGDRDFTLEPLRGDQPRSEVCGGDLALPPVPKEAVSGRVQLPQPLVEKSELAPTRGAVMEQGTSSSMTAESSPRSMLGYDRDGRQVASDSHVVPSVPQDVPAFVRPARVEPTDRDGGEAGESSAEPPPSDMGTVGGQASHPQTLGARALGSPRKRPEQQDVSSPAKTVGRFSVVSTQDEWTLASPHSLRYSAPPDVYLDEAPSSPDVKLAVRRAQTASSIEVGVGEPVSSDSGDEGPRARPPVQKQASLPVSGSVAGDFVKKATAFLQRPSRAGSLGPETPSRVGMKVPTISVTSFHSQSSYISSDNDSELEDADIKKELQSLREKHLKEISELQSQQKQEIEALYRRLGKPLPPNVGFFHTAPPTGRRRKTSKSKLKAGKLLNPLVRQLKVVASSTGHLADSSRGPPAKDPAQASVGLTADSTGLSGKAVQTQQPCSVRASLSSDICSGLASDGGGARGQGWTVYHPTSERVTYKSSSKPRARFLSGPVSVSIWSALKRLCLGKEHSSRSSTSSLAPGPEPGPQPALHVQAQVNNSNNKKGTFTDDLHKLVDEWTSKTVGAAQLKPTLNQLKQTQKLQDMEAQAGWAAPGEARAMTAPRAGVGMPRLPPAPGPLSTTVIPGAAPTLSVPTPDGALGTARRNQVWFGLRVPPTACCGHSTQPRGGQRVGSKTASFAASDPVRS
Sequence of UniProt Q04771 (whole entry, looked up): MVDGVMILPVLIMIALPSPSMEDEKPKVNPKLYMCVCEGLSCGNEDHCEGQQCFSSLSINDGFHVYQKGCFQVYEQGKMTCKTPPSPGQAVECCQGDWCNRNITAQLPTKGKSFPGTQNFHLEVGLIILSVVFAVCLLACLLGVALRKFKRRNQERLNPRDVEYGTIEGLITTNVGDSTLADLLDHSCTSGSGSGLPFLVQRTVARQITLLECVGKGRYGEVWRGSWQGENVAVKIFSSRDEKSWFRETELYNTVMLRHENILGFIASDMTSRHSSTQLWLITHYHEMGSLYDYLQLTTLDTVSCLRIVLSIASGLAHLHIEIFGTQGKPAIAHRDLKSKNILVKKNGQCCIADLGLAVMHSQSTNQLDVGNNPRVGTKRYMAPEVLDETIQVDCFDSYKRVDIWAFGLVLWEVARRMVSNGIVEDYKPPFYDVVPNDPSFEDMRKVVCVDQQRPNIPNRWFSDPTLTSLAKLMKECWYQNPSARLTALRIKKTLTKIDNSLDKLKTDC
Sequence of UniProt P04629 (whole entry, looked up): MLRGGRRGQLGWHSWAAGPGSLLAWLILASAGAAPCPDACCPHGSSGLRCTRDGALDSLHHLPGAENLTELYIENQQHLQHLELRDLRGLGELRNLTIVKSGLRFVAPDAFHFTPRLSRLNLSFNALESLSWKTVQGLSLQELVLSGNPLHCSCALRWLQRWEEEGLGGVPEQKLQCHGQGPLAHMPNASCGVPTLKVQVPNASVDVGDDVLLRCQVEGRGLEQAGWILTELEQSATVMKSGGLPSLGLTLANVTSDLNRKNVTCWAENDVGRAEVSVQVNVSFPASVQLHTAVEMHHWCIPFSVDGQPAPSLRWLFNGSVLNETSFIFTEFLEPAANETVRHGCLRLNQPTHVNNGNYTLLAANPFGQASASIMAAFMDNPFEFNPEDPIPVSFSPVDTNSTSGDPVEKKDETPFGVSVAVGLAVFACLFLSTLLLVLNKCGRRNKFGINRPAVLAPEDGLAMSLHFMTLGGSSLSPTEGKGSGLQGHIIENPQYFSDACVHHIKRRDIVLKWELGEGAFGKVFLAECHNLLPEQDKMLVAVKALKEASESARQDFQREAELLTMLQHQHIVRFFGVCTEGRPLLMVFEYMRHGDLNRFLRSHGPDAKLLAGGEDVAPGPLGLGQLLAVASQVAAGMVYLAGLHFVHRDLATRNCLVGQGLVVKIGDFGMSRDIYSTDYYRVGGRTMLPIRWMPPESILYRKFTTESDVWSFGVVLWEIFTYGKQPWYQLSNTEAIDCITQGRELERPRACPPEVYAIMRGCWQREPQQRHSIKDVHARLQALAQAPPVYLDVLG

Set 1
Host: human
Matrix: microsomes or S9
Concentration: 2 µM
Time: 0.5 h
Measurement: remaining compound
COc1ccc(/C=C/c2cc(OC)cc3oc(-c4ccc(OC)cc4)c(-c4cc(OC)cc(OC)c4)c23)cc1: 80%
CCc1sc(C(=O)Nn2cnnc2)cc1Br: 82.4%
CCc1[nH]c(C(=O)Nc2cc(S(=O)(=O)N3CCCC3)ccc2O)c(C)c1C(=O)OC: 57.7%
Cc1cc(=O)n2c3ccccc3nc2n1CC(=O)c1ccco1: 19.5%
COc1cc(=O)[nH]cc1C(=O)N1CCC[C@H](CN2CCOCC2)C1: 85.4%

Set 2
SMILES: CC(=O)N[C@@H](Cc1c[nH]c2ccccc12)C(=O)N[C@@H](CCC(=O)C=[N+]=[N-])C(=O)OC(C)C
Host: mouse, EL4 tumour-bearing
Matrix: EL4 tumour
Dose: dose not given
Relative to: vehicle
Measurement: log2 fold change
measured: adenine: -2.52
measured: mannitol/sorbitol: 0.339
measured: N-formylmethionine: -0.782
measured: 1-methylhistamine: 1.36
measured: CMP: -0.117
measured: cytosine: -0.0968
measured: N-acetylglycine: 0.242

Set 3
SMILES: C[C@@H]1CN(c2cc(-c3nn(C)c4ccc(OC5(C)CC5)cc34)ncn2)C[C@H](C)O1
Read-out: cell-free assay
Technique: competition with immobilised ligand
Concentration: 1 µM
Measurement: remaining binding
Tyrosine-protein kinase BTK (BTK, Homo sapiens, UniProt Q06187): 80%
3-phosphoinositide-dependent protein kinase 1 (PDPK1, Homo sapiens, UniProt O15530): 100%
Serine/threonine-protein kinase 33 (STK33, Homo sapiens, UniProt Q9BYT3): 86%
Mitogen-activated protein kinase 12 (MAPK12, Homo sapiens, UniProt P53778): 100%
Serine/threonine-protein kinase SIK3 (SIK3, Homo sapiens, UniProt Q9Y2K2): 63%
Tyrosine-protein kinase JAK1, JH1 (JAK1, Homo sapiens, UniProt P23458): 100%
High affinity nerve growth factor receptor (NTRK1, Homo sapiens, UniProt P04629): 76%
Fibroblast growth factor receptor 3 (FGFR3, Homo sapiens, UniProt P22607, G697C): 100%
Ephrin type-A receptor 3 (EPHA3, Homo sapiens, UniProt P29320): 68%
Serine/threonine-protein kinase PAK 4 (PAK4, Homo sapiens, UniProt O96013): 93%
TGF-beta receptor type-2 (TGFBR2, Homo sapiens, UniProt P37173): 73%
Serine/threonine-protein kinase TAO2 (TAOK2, Homo sapiens, UniProt Q9UL54): 80%
Serine/threonine-protein kinase ULK3 (ULK3, Homo sapiens, UniProt Q6PHR2): 67%
Cyclin-dependent kinase 16 (CDK16, Homo sapiens, UniProt Q00536): 87%
Activin receptor type-1 (ACVR1, Homo sapiens, UniProt Q04771): 96%
Ribosomal protein S6 kinase alpha-5, N-terminal kinase domain (RPS6KA5, Homo sapiens, UniProt O75582): 100%
Serine/threonine-protein kinase WNK2 (WNK2, Homo sapiens, UniProt Q9Y3S1): 63%

Set 4
Structure (SMILES): COc1cc(C(=O)OCCCN2CCCN(CCCOC(=O)c3cc(OC)c(OC)c(OC)c3)CC2)cc(OC)c1OC
Technique: electrocardiography
Route: intraperitoneal
Measurement: heart rate
mice; 30 mg/kg, 60 min: 555 beats/min and 550 beats/min
mouse; 10 mg/kg, before dosing: 594 beats/min and 588 beats/min and 598 beats/min
mice; 30 mg/kg, 10 min: 559 beats/min and 550 beats/min and 560 beats/min

Set 5
Cell line: HaCaT
Concentration: 100 µM
Time: 60 h
Measurement: viability
CC1=NS(=O)(=O)c2cc(Cl)ccc2N1: 124%
CC(=O)O[C@H]1Cc2ccccc2N(C(N)=O)c2ccccc21: 148%
CCN(CC)C(=O)N1CCN(C)CC1: 144%
O=C(NCCO[N+](=O)[O-])c1cccnc1: 139%

Further values, each from its own experiment
NC(=O)N1c2ccccc2C=Cc2ccccc21
fraction unbound (human; 6 h): 0.346

Repeated from above (set 3):
Serine/threonine-protein kinase TAO2 (TAOK2, Homo sapiens, UniProt Q9UL54): 80%
Serine/threonine-protein kinase ULK3 (ULK3, Homo sapiens, UniProt Q6PHR2): 67%
Cyclin-dependent kinase 16 (CDK16, Homo sapiens, UniProt Q00536): 87%
Activin receptor type-1 (ACVR1, Homo sapiens, UniProt Q04771): 96%
Ribosomal protein S6 kinase alpha-5, N-terminal kinase domain (RPS6KA5, Homo sapiens, UniProt O75582): 100%
